Measurements gathered from unrelated publications.
CDK8: Cyclin-dependent kinase 8 (CDK8, Homo sapiens, UniProt P49336)
Chain of UniProt P49336 (whole entry, looked up): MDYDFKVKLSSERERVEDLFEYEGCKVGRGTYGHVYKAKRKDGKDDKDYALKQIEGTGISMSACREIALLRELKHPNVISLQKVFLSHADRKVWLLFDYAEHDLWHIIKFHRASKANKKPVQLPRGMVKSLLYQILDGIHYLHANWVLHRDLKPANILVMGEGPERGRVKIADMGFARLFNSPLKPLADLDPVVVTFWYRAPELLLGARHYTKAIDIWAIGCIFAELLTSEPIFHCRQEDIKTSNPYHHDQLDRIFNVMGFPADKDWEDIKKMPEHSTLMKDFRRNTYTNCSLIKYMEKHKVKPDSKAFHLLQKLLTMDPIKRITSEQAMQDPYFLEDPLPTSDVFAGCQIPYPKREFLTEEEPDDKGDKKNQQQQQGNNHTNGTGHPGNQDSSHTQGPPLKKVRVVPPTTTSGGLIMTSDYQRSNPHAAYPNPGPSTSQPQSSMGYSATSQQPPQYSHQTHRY
CDK8 with cyclin C: Cyclin-dependent kinase 8, with cyclin C (CDK8, Homo sapiens, UniProt P49336)

Structure (SMILES) | target | test | conditions | scale | endpoint | value
c1cnc2ccc(Nc3nc(NC4CC4)c4nc[nH]c4n3)cc2c1 | CDK8 | kinase activity, inhibitor, SelectScreen kinase profiling | 1 µM | reference: control | remaining activity | 90%
C1=C/COCc2cc(ccc2OCCN2CCCC2)Nc2nccc(n2)-c2cccc(c2)COC/1 | CDK8 |  | concentration not given |  | percent of control | 75%
C=CC(=O)N1CCC(C(=O)NCC(=O)N2CCN(c3nc(-c4cnc(N)nc4C(F)F)nc(N4CCOCC4)n3)CC2)CC1 | CDK8 | KINOMEscan | 1 µM |  | remaining binding | 100%
CN1CCN(C(=O)c2ccc3cc(CCNc4ccnc5ccc(C#N)cc45)ccc3c2)CC1 | CDK8 with cyclin C | TR-FRET kinetics |  |  | residence time | 13.6 min
C[C@@H](c1ccc(-n2cnc3c(N)ncnc32)cc1)N1CCc2nn(C)c(Cc3ccccc3)c2C1=O | CDK8 | KINOMEscan | 0.1 µM | reference: DMSO control | remaining binding | 34%
O=C(NC1CCC1)c1ccc2nc(-c3cccc(NS(=O)(=O)NCCN4CCCCC4)c3)cn2c1 | CDK8 | enzyme activity | 10 µM |  | remaining activity | 86%
CN1CCN(C(=O)c2ccc3cc(CCNc4ncnc5ccc(C#N)cc45)ccc3c2)CC1 | CDK8 with cyclin C | TR-FRET kinetics |  |  | residence time | 5.13 min
C=CC(=O)N1CCC(COCC(=O)N2CCN(c3nc(-c4cnc(N)nc4C(F)F)nc(N4CCOC[C@@H]4C)n3)CC2)CC1 | CDK8 | KINOMEscan | 1 µM | reference: DMSO control | remaining binding | 96%

For quick reference, copied from above:
Structure (SMILES) | target | test | conditions | scale | endpoint | value
CN1CCN(C(=O)c2ccc3cc(CCNc4ncnc5ccc(C#N)cc45)ccc3c2)CC1 | CDK8 with cyclin C | TR-FRET kinetics |  |  | residence time | 5.13 min
